Assay results pooled from the literature.
Each line is one published result; not all experiments were run side by side. ± gives the spread as reported.

SMILES | target | test | test system | conditions | scale | quantity | value
CCCCCCc1ccc(N(Cc2ccccc2)C(=O)OC(C)(C)C)cc1 | HBV core protein Cp149 dimer | solution NMR | – | 4 molar equivalents, pH 7.5, 295 K, average over eight residues | baseline: apo Cp149 dimer | average chemical shift perturbation | 0.014 ppm
CCCCCCCCCCCCC/C=C/C=O | hippocalcin (human) | IA-probe cysteine labelling, covalent modifier, competitive isoTOP-ABPP | proteome, soluble, MDA-MB-231 | 100 µM, 60 min, in vitro | baseline: DMSO over compound, higher = stronger blockade | isoTOP-ABPP ratio | 1.1
C#CCN1CCN(c2nc(N3CCN(c4ccc(Cc5cc(CNC(=O)[C@@H]6C[C@@H](O)CN6C(=O)[C@@H](NC(=O)C6(F)CC6)C(C)(C)C)c(O)cc5-c5scnc5C)cc4)CC3)nc(N3CCN(C(=O)C4CC4)C3)n2)CC1=O | BRD9 and VHL-elongin C-elongin B | SPR | immobilized BRD9 | – | baseline: binary KD over ternary KD | cooperativity alpha | 0.26
Nc1ncc(-c2cc(-c3cnn(CC(F)(F)F)c3)ncc2F)nc1C(=O)NC1CNCC(F)C1 (centres unmarked) | ULK3 | KINOMEscan | – | 1 µM | baseline: DMSO control | remaining binding | 94%
Cc1ncsc1-c1ccc(CNC(=O)[C@@H]2C[C@@H](O)CN2C(=O)[C@@H](NC(=O)C2(F)CC2)C(C)(C)C)c(OCCC2CN(c3nc(NCC(C)(C)C4(O)CCOC4)nc(N4CCC[C@H]4Cn4ccnn4)n3)C2)c1 (some centres unmarked) | BRD9 and VHL-elongin C-elongin B | SPR | immobilized BRD9 | – | baseline: binary KD over ternary KD | cooperativity alpha | 5.9
Fc1ccc(Nc2nc(NC3CCCCC3)c3cc(C(F)(F)F)ccc3n2)cc1F | β2AR/β1AR ICL3 chimera | β-arrestin2 recruitment, antagonist, BRET | – | – | baseline: isoprenaline maximal response | maximal inhibition | -13.5%
O=c1c(-c2ccc(F)cc2)c[nH]c2ccnc(Cl)c12 | WDR5 | – | – | – | baseline: parent hit compound, negative = stronger binding | binding free energy change | -0.5 kcal/mol
CC[C@H](C)[C@H](NC(=O)[C@H](CC(C)C)NC(=O)[C@H](C)NC(=O)[C@H](C)NC(=O)[C@@H]1CCCN1C(=O)[C@@H](NC(=O)[C@H](C)N)C(C)C)C(=O)N[C@@H](CC(C)C)C(=O)N[C@@H](CCCNC(=N)N)C(=O)N[C@@H](CCC(=O)O)C(=O)N[C@@H](CCCCN)C(=O)N[C@@H](CCCCN)C(=O)N[C@@H](CCCCN)C(=O)N[C@@H](CCCCNC(=O)CCCCCNC(=S)Nc1ccc2c(c1)C(=O)OC21c2ccc(O)cc2Oc2cc(O)ccc21)C(N)=O | BIRC2 (human) | – | – | concentration not given, 100-fold competition | baseline: no competitor | log2 fold change | 4.11
Cc1cc(NC(=O)C(=O)N2C[C@@H](C)CC[C@@H]2c2ccc3scnc3c2)cnc1N | PRMT5 human | western blot, item: SDMA | HAP1 MTAP-null | 24 h | – | IC50 | 9 nM
Cc1cn(CC(=O)N(CCNC(=O)CN(CCNC(=O)CN(CCNC(=O)CN(CCNC(=O)CN(CCNC(=O)CN(CCNC(=O)CN(CCNC(=O)CN(CCN)C(=O)Cn2cnc3c(=O)[nH]c(N)nc32)C(=O)Cn2cnc3c(N)ncnc32)C(=O)Cn2cc(C)c(=O)[nH]c2=O)C(=O)Cn2cnc3c(=O)[nH]c(N)nc32)C(=O)Cn2cc(C)c(=O)[nH]c2=O)C(=O)Cn2cnc3c(=O)[nH]c(N)nc32)C(=O)Cn2cnc3c(N)ncnc32)CC(=O)NCCN(CC(=O)NCCOCCOCC(N)=O)C(=O)Cn2cnc3c(N)ncnc32)c(=O)[nH]c1=O | complementary DNA | duplex formation, UV melting | PBS | 1 µM, pH 7.2 | – | Tm | 42 ± 0.73 °C
CCCCCCc1ccc2cc(O)ccc2c1 | HBV core protein Cp149 dimer | solution NMR | – | 4 molar equivalents, pH 7.5, 295 K, average over eight residues | baseline: apo Cp149 dimer | average chemical shift perturbation | 0.027 ppm
O=S(=O)(NCc1ccncc1)c1ccc(C2CCCCC2)cc1 | PU.1 (human) | biotin probe pulldown, item: PU.1 | – | 500 µM | baseline: DMSO | protein binding | no effect
CCCCCCc1ccc(N(C)C(=O)OC(C)(C)C)cc1 | HBV core protein Cp149 dimer | solution NMR | – | 4 molar equivalents, pH 7.5, 295 K, average over eight residues | baseline: apo Cp149 dimer | average chemical shift perturbation | 0.008 ppm
C=CC(=O)Nc1cccc(Cn2ncc3cnc(Nc4cnn(CCOC)c4)nc32)c1 | PRKCI human | binding, KINOMEscan | – | 100 nM | lower = stronger binding | percent of control | 72%
Nc1ccc(C2CC2)cc1 | HBV core protein Cp149 dimer | solution NMR | – | 4 molar equivalents, pH 7.5, 295 K, average over eight residues | baseline: apo Cp149 dimer | average chemical shift perturbation | 0.029 ppm
CC(=O)NCCN(c1nc(NCc2n[nH]c3c2CCCC3)nc(N2CC3C(CCOc4cc(-c5scnc5C)ccc4CNC(=O)[C@@H]4C[C@@H](O)CN4C(=O)[C@@H](NC(=O)C4(F)CC4)C(C)(C)C)C3C2)n1)C(C)C (some centres unmarked) | BRD9 and VHL-elongin C-elongin B | SPR | immobilized BRD9 | – | baseline: binary KD over ternary KD | cooperativity alpha | > 18
CCCCCCc1ccc(NCc2ccccc2)cc1 | HBV core protein Cp149 dimer | solution NMR | – | 4 molar equivalents, pH 7.5, 295 K, average over eight residues | baseline: apo Cp149 dimer | average chemical shift perturbation | 0.014 ppm
CC(=O)NCC1CCCCN1c1nc(N(C)CCc2ncc(C)s2)nc(N2CC3C(CCOc4cc(-c5scnc5C)ccc4CNC(=O)[C@@H]4C[C@@H](O)CN4C(=O)[C@@H](NC(=O)C4(F)CC4)C(C)(C)C)C3C2)n1 (some centres unmarked) | BRD9 and VHL-elongin C-elongin B | SPR | immobilized BRD9 | – | baseline: binary KD over ternary KD | cooperativity alpha | > 45
CCCCCCc1ccc(NC)cc1 | HBV core protein Cp149 dimer | solution NMR | – | 4 molar equivalents, pH 7.5, 295 K, average over eight residues | baseline: apo Cp149 dimer | average chemical shift perturbation | 0.03 ppm
Cn1ccc2cc(-n3c(=O)[nH]c4sc5c(c4c3=O)CCCC5)ccc21 | L-type calcium channel rat | binding, radioligand binding | – | 10 µM, benzothiazepine site | – | inhibition | 22%
CCC(C)C[C@](C)(CC)c1ccc(O)cc1 (some centres unmarked) | HBV core protein Cp149 dimer | solution NMR | – | 4 molar equivalents, pH 7.5, 295 K, average over eight residues | baseline: apo Cp149 dimer | average chemical shift perturbation | 0.021 ppm
CC(=O)NCC1CCCCN1c1nc(N2CCN(c3nnc[nH]3)CC2)nc(N2CC3C(CCOc4cc(-c5scnc5C)ccc4CNC(=O)[C@@H]4C[C@@H](O)CN4C(=O)[C@@H](NC(=O)C4(F)CC4)C(C)(C)C)C3C2)n1 (some centres unmarked) | BRD9 and VHL-elongin C-elongin B | SPR | immobilized BRD9 | – | baseline: binary KD over ternary KD | cooperativity alpha | > 19
Fc1ccc(Nc2nc(NC3CCCCC3)c3cc(Br)ccc3n2)cc1F | β2AR/β1AR ICL3 chimera | β-arrestin2 recruitment, antagonist, BRET | – | with: isoprenaline 1 µM | – | pIC50 | 6.3
C=CC(=O)N1[C@@H](c2ccc3c(c2)OCO3)c2[nH]c3ccccc3c2C[C@H]1C(=O)N1CCN(C)CC1 | human cyclin E1 N112C-3xFLAG:CDK2 | co-IP with TMT proteomics, item: RPSA | – | concentration not given, P08865 | baseline: wild type DMSO | relative co-enrichment | 127%
c1ccc(-c2n[nH]cc2-c2ccnc3ccccc23)nc1 | TOR1 (Candida albicans) | kinase binding, MIB/MS competition | Candida albicans lysate | 1 µM | baseline: DMSO | log2 fold change | -0.37
Nc1ccc(Cc2ccccc2)cc1 | HBV core protein Cp149 dimer | solution NMR | – | 4 molar equivalents, pH 7.5, 295 K, average over eight residues | baseline: apo Cp149 dimer | average chemical shift perturbation | 0.072 ppm

Excerpt of the above:
SMILES | target | test | test system | conditions | scale | quantity | value
CC[C@H](C)[C@H](NC(=O)[C@H](CC(C)C)NC(=O)[C@H](C)NC(=O)[C@H](C)NC(=O)[C@@H]1CCCN1C(=O)[C@@H](NC(=O)[C@H](C)N)C(C)C)C(=O)N[C@@H](CC(C)C)C(=O)N[C@@H](CCCNC(=N)N)C(=O)N[C@@H](CCC(=O)O)C(=O)N[C@@H](CCCCN)C(=O)N[C@@H](CCCCN)C(=O)N[C@@H](CCCCN)C(=O)N[C@@H](CCCCNC(=O)CCCCCNC(=S)Nc1ccc2c(c1)C(=O)OC21c2ccc(O)cc2Oc2cc(O)ccc21)C(N)=O | BIRC2 (human) | – | – | concentration not given, 100-fold competition | baseline: no competitor | log2 fold change | 4.11
Cc1cc(NC(=O)C(=O)N2C[C@@H](C)CC[C@@H]2c2ccc3scnc3c2)cnc1N | PRMT5 human | western blot, item: SDMA | HAP1 MTAP-null | 24 h | – | IC50 | 9 nM
Cc1cn(CC(=O)N(CCNC(=O)CN(CCNC(=O)CN(CCNC(=O)CN(CCNC(=O)CN(CCNC(=O)CN(CCNC(=O)CN(CCNC(=O)CN(CCN)C(=O)Cn2cnc3c(=O)[nH]c(N)nc32)C(=O)Cn2cnc3c(N)ncnc32)C(=O)Cn2cc(C)c(=O)[nH]c2=O)C(=O)Cn2cnc3c(=O)[nH]c(N)nc32)C(=O)Cn2cc(C)c(=O)[nH]c2=O)C(=O)Cn2cnc3c(=O)[nH]c(N)nc32)C(=O)Cn2cnc3c(N)ncnc32)CC(=O)NCCN(CC(=O)NCCOCCOCC(N)=O)C(=O)Cn2cnc3c(N)ncnc32)c(=O)[nH]c1=O | complementary DNA | duplex formation, UV melting | PBS | 1 µM, pH 7.2 | – | Tm | 42 ± 0.73 °C
